{"data": "Assay results pooled from the literature", "note": "Every numbered part comes from another study and shows a few of its results, in no order."}
{"data": "Study 1", "target": "RNA binding protein fox-1 homolog 2, RRM domain, GST-SBP tag (RBFOX2, Homo sapiens, UniProt O43251-10, residues 100-194)", "technique": "RNA Bind-n-Seq", "molecule type": "RNA", "medium": "in vitro", "tested at": "365 nM", "notes": "natural RNA segment, single round, ends assumed", "baseline": "no-protein control", "reading": "higher = stronger binding", "Construct (chain)": "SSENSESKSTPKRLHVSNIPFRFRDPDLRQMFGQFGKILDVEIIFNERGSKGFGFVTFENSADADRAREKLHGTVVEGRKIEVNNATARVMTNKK"}
{"Sequence": "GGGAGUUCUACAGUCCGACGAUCUGCCCAGUGGCUGUGCACUGCUCUGUGCACGUGCGUGUGUGUGAGUGCACUUGUGUGUGGGUGACUAAGUGGAUGCAUGUGUGUGCCUGUGUGAGUGAGGGUAUGUGCACUGGAAUUCUCGGGUGCCAA", "RBNS enrichment (R)": 12.2}
{"Sequence": "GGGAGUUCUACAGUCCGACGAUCUGAGCUACUGUUGGCUGCUGCCCUCCUUCCCAGUGAAAGGUACAGAGCAAUAAGCAUCAUGCAUCUCCCCGAUUCCCACUAGCACCCCUCUGCCUCUGGCUCAGGUUGCUUGGAAUUCUCGGGUGCCAA", "RBNS enrichment (R)": 0.941}
{"Sequence": "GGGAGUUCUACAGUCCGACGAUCGAUCUUUCACCCAUUAGCAUUACUUACGUAGAUAAUUCUUUAUGCCUAGUUAUUAUACAUAUUAAUUUUUAAGGUAUACAUUUAAAUUACACAAUUGUUCAUUGUGGUUUUGGAAUUCUCGGGUGCCAA", "RBNS enrichment (R)": 1.03}
{"Sequence": "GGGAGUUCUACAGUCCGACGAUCUGGGUGCUGUACCUGUUCCAGAAGCGAGGACCCAGGUGACAGCCUCACCUUUGCAAAGUUAUAGAGGAACCUGCCCUGGUACAUCUUUAAUAUUAGGAUUCUGUUUUCUAUGGAAUUCUCGGGUGCCAA", "RBNS enrichment (R)": 0.308}
{"Sequence": "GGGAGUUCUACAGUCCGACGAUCCUUUAAAUCUGAUGUUUCCUGUACCUGCCACACUAUGUUAGAAUGUGUCCUUCAAACAUAUCCUCCUGCAACUUCUCAAACUGUACUAAAUUGAUAUUUCUUGAAGUCUAUGGAAUUCUCGGGUGCCAA", "RBNS enrichment (R)": 0.561}
{"Sequence": "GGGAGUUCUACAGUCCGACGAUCAAUUUCCUUGUUGAGAACAGGAAAGUGGCCAGUAGCCAGGCAAGUCAUAGAAUUGAUUACCCGCCGAAUUCAUUAAUUUACUGUAGUGUUAAGAGAAGCACUAAGAAUGCUGGAAUUCUCGGGUGCCAA", "RBNS enrichment (R)": 0.641}
{"Sequence": "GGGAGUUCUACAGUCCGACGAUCCGCCCCUGGGGCUGGCCUCUCCGCCCUCGCCCUCGGAGUAGGGGGUAGCGGCUUGGGUCUGACACAUCUUUGAACCUUGUGGCCAGGCCUGGACUUCGCCCCCAGGCCUAUGGAAUUCUCGGGUGCCAA", "RBNS enrichment (R)": 0.214}
{"Sequence": "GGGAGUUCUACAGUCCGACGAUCCAAAGUUUAGAUCUACAUUCUUCAUUGUAUUUGCUGUUUCUUAAUUGGGCACACACAACUCCUGGUCAUGUCCCAGUUCAGCACCGAUCGCUAAGGCCGAUCCUGUAGAAUGGAAUUCUCGGGUGCCAA", "RBNS enrichment (R)": 0.474}
{"data": "Study 2", "target": "Sal-like protein 4, full length isoform B (SALL4, Homo sapiens, UniProt Q9UJQ4-2, residues 1-616)", "technique": "universal PBM", "molecule type": "double-stranded DNA, one strand shown", "medium": "in vitro", "tested at": "not given", "notes": "8-mer, flanks averaged, mean of replicates", "reading": "higher = stronger binding", "Target sequence (chain)": "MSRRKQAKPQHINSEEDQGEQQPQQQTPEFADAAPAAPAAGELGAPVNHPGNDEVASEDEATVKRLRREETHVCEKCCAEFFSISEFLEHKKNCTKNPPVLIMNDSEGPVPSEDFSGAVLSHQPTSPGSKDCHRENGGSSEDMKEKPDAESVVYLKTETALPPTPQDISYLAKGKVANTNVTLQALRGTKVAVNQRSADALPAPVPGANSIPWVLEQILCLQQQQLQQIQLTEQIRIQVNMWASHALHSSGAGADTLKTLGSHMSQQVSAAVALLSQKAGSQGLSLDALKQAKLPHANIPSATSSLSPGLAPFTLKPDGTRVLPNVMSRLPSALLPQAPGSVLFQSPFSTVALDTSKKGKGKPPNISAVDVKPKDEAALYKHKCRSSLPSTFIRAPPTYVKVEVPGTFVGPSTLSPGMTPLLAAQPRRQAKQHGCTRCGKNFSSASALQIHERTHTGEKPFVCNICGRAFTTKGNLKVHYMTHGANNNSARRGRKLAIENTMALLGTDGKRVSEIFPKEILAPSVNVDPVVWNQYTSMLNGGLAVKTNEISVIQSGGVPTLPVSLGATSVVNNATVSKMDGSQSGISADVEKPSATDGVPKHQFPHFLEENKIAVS"}
{"Sequence": "CGTCATGA", "E-score": -0.0558}
{"Sequence": "CACACGAC", "E-score": -0.052}
{"Sequence": "AATTATGA", "E-score": 0.449}
{"Sequence": "GCCGGATA", "E-score": -0.00574}
{"Sequence": "CGATAACC", "E-score": 0.0434}
{"Sequence": "ATGAGGGC", "E-score": -0.0863}
{"Sequence": "CAGTCTTA", "E-score": 0.0836}
{"Sequence": "ATAAATCG", "E-score": 0.216}
{"data": "Other studies, line by line"}
{"Substance": "CC1(C)O[C@@H]2C[C@H]3[C@@H]4CCC5=CC(=O)C=C[C@]5(C)[C@H]4[C@@H](O)C[C@]3(C)[C@]2(C(=O)CO)O1", "tested on": "HEK-293T", "test": "pseudovirus infection, FDA-approved drug library screen", "test system": "VSV pseudotyped with SARS-CoV-2 spike", "conditions": "10 µM, 16 h", "how to read": "baseline: vehicle-treated", "quantity": "GFP-positive cells", "result": "89.7%"}
{"Substance": "tyrphostin AG 835", "tested on": "Replicase polyprotein 1ab, nsp12 with nsp7/nsp8 (rep, Severe acute respiratory syndrome coronavirus 2, UniProt P0DTD1)", "test": "RdRp activity, inhibitor", "conditions": "20 µM", "quantity": "inhibition", "result": "91.4%"}
